Measured values pooled from the literature.
Every numbered part comes from another study and shows a few of its results, in no order. Changes are numbered by the printed parent chain.

Series 1 — technique: protein binding microarray; molecule type: double-stranded DNA, one strand shown; matrix: in vitro; concentration: not given; relative to: not given; reading: higher = stronger binding
Target: Histone acetyltransferase KAT6A, winged helix 2, GST fusion (KAT6A, Homo sapiens, UniProt Q92794, residues 85-181)
Notes: 8-mer, flanks averaged, mean of 2 arrays, mostly near background
Target sequence (chain): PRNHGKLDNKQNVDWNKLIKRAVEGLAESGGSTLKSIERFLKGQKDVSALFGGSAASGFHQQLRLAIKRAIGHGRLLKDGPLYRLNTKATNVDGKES
Oligonucleotide	E-score
CCCATGAA	-0.0403
CATCGCGA	0.0614
AAAGTCTG	-0.198
AGGAATAT	0.0927
GAAGAGAC	0.0432
CGACTATA	-0.165
ATTGTGAC	-0.0907
AATAGAGC	0.143
ATGACTAG	-0.271
CGATACAG	-0.0697
CTAGTAGC	-0.00364
GAATCGGC	0.148
ACGCACTG	0.0898
ATACGGAC	-0.079
TGCCTAAA	0.021
AGAATACC	0.0507
CGTATGAG	-0.0811
GCATGGGA	-0.125
CTAAACCC	-0.147
AAACGACG	0.0501
CAGATTCA	-0.0642
AACCGCGA	0.286
GCAAGACC	-0.017
AAATCGTA	-0.202
CAAATGTC	-0.0554

Series 2 — technique: RNA Bind-n-Seq; molecule type: RNA; matrix: in vitro; concentration: 365 nM; relative to: no-protein control; reading: higher = stronger binding
Target: RNA binding protein fox-1 homolog 2, RRM domain, GST-SBP tag (RBFOX2, Homo sapiens, UniProt O43251-10, residues 100-194)
Notes: natural RNA segment, single round, ends assumed
All sequences stand within: GGGAGUUCUACAGUCCGACGAUC … UGGAAUUCUCGGGUGCCAA
Residues (chain): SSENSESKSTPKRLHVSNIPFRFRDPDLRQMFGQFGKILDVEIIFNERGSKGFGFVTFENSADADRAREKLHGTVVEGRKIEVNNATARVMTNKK
Oligonucleotide	RBNS enrichment (R)
CGUGCCAGCGUGAAGCUGGUGAAGACCUGCCAGGAGGCAGCCACAGGCGAGUGCCAGCAGUGUUACUGCCGCCCCAUGUGGUGCCUCACCUGCAUGGGCAAGUGGUUCGC	2.14
GCAGGUGACCAAGCACGGUCCCUCGUGGGACUGGAUUCGCCAUUUUCUUAUAUCUGCUGCUAAAUCGCCAAGCCCGGAAGAUUAGGGUUGUUUCUGGGAUUCCUGUAGAC	0.568
GUAACAAUGUAUAAAUAGUGGCUUUUCUGUACAAAAGGUUGUAAUGCCUCCUGAUGGAUAUAAUUUUGUGAUUGUAUUUAAAAGUUGAAUAAAUCACACCAGCUUCCUGA	1.46
CAACGUGGGCAAGUCAUUGUCCUCUGAGCUGCAGUUUCCUCAUCUGUCACAUCGCUACAGACAAGACCUCCCUGGAACCCUUCUGAUUGUCUUAGACACUGUGGUUGCAA	0.285
UGUGACUCCAGUAUAUCUUACCUGUACUGACCAAACCUAAAUAAAGAUUUUUAUUGUAACUCCUUAAUUAGCUUUUUUGUUUUGUUUUGGGUGUAUGUUUAGCAUUUGUC	0.571
UUGCAUCAGUUUUGGUCUGCCUUAUGAGUUCUGUUUUGAACAAGUGUAACACACUGAUGGUUUUAAUGUAUCUUUUCCACUUAUUAUAGUUAUAUUCCUACAAUACAAUU	0.876
UGUGGCCUCAGCCAGGAGCGCACUGGCCAGUCUCCCAGGCCUGGAAGCACUGCAGUGUGCAGAGGCUCUCCUUGACCUUUCUACUUUUGACACGGGUCCCUGUUCGAGAA	0.299
GUUAACUGUUGACUCCUCAAGGGUUUUGAUCAAUAUCACCCAAACCUUUUCCACUUGACAUGCUAGAAUUUUGGUGUGUGUGUGUGUGUGUGUGUAUUUGUUCACGAGCA	1.5
GACUCCAGCGACUGCACACCCGCUCUGUGCUGCGGCCAGGGAGGGUGAGAACCAUCGCUCCUUUGCCAGGUAACUCUUGGGAGCCUCUCCCCCUUCUGCAUAGAGGAAAU	0.248
AGAAAUUUAAAAUAGCAUUAGAGCAAGUUGCUUGUCAUGGCUUGAAGAGCUUAACUUUGUCUUUUGGGUGAGUAGCUAUAGGUUUGAGAGAGGCUGGCUACUCCUAGUUC	1.12
GUGAAAUCUCAGUAAGUUAUUUUGGAGUUUAUUAAAGGUUCACAUUUUAAGUACAACUUUUCAGGCUAGUUACUGUGAUGGACAUUGAGGUGUUUGUAGAACUGACUCUU	0.298
AGGCAAGCAAAAGAUUGUCCCCUUCUGCAUAUGGGUAAAACUGAGACGUCCCCGUGAGCCCGAGGCUGGAAGUGGUGUCUGCCUUCAAGGGUUAAUCCCUCUUUGUUCCA	0.931

Series 3 — technique: DHFR PCA, deep sequencing; matrix: yeast; with: (+)-ABA 58 µM; relative to: wild-type fitted maximum; reading: higher = stronger binding
Target: ABI1, truncated, D143A, DHFR fusion (Arabidopsis thaliana)
Notes: methotrexate growth selection, single substitutions
Starting sequence: PYL1, truncated, DHFR fusion (Arabidopsis thaliana); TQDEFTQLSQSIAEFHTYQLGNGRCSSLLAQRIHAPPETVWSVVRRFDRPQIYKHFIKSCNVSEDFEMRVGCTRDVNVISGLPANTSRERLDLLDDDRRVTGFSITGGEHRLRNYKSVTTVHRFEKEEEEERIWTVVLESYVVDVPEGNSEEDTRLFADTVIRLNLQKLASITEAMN; partner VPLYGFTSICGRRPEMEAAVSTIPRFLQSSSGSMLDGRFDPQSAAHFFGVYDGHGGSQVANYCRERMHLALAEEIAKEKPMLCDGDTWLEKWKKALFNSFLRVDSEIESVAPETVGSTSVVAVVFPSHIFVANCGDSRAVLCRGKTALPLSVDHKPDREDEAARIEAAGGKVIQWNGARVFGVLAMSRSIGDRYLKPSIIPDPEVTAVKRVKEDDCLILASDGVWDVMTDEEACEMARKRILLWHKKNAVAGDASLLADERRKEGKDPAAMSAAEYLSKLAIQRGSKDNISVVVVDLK
Change	relative binding score
Y115C	9.72%
M68S	63.2%
T160S	62.7%
R155K	83.5%
R49V	68.9%
I12A	41%
T173Q	16.8%
V43A	45.9%
R111H	28.7%
T86C	80.9%
A35R	7.29%
T106A	56.6%

Series 4 — technique: protein-binding microarray; molecule type: double-stranded DNA, one strand shown; matrix: in vitro; concentration: 940 nM top; notes: 60-bp whole probe; with: salmon DNA 0.4 mg/ml; relative to: random background probes; reading: higher = stronger binding; all sequences stand within: GCCTAGCAC … GTCTTGATTCGCTTGACGCTGCTG
Target: Interferon regulatory factor 5, full length, phosphomimetic (IRF5, Homo sapiens, UniProt Q13568-2, residues 1-514, S451D/S453D/S456D/S462D)
Oligonucleotide	fitted relative affinity
GACGATATCGGGGCTGGAGACGTGCTA	-0.185 z-score
TTAAGACTGGACTTTCGGTTAGTGCTA	2.7 z-score
GACGAACTGAGAATGGAGACGTGCTAG	0.0515 z-score
TTAGGACTGGGGACTGAGTTAGTGCTA	-0.218 z-score
TCCATTTTGTGTTTTCATTTGTGCTAG	1.44 z-score
TCAGATCTCCGAGATGCCACTGTGCTA	-0.192 z-score
ATAGGTTTCGGGTATCGGTTAGTGCTA	9.94 z-score
TCATCTCTCTTAAATAGGACTGTGCTA	1.04 z-score
TTAGGTATCGTTATCGGTTAGTGCTAG	5.73 z-score
TTAGATATCAGTCTTGATTAGTGCTAG	-0.0421 z-score
GGGCAGGAAACGGAGGACACGTGCTAG	-0.328 z-score
TTAGGACTGGGTTTCGCTTAGTGCTAG	3.24 z-score
TTAGGGCTCGGTTTCGGTTAGTGCTAG	7.62 z-score
TTAGGTTTCGGTCTCGTTTAGTGCTAG	15.1 z-score
GACGGTCTCGGGTTTCGGGACGTGCTA	3.5 z-score
CTGTTTCTACTGTCTGTTTCCGTGCTA	1.92 z-score
TTAGGTATTGGGACTGGGTTAGTGCTA	0.226 z-score
TTAGATATCAGAATGGATTAGTGCTAG	-0.287 z-score
GACGGACTGGACTATGGGGACGTGCTA	-0.248 z-score
TTCTCTATTGCTTTCTCTTTGTGCTAG	2.78 z-score
CAAGTTTCTCCTTTCGGAATGTGCTAG	4.15 z-score
TTAGATATCGGGACTTGATTAGTGCTA	-0.0511 z-score
GACGGGATCGGACTGGGGACGTGCTAG	-0.188 z-score
GACGGACTGGGGTTCCGGGACGTGCTA	-0.395 z-score
TCACTTTCCAACTCTGTTACTGTGCTA	0.936 z-score

Series 5 — target: CCNB2, cyclin fold, Cln2 fusion (human); technique: yeast growth competition, sequencing; matrix: yeast; notes: strong parent motif; relative to: not given; reading: higher = stronger binding
Starting sequence: PKMYT1 docking peptide (human); SFEPRNLLSLFED
Change	normalised enrichment score
CFEPRNLLSLFED [S1C]	1.59
SCEPRNLLSLFED [F2C]	1.78
SFEPRRLLSLFED [N6R]	0.336
SFEPRNLLSLNED [F11N]	-0.203
SFEPRNLLSLYED [F11Y]	0.0396
SFEPRNLLCLFED [S9C]	0.823
SFEPRNLLSLFND [E12N]	0.966
SFEPGNLLSLFED [R5G]	-0.289
SFEPRNLLSLFER [D13R]	0.357
SFEPRPLLSLFED [N6P]	-0.349
SFEPRNLFSLFED [L8F]	0.643
SFEPRNLLSEFED [L10E]	2.59
SFEPKNLLSLLED [R5K F11L]	-0.251

Some of these lines once more (series 4):
Oligonucleotide	fitted relative affinity
TCCATTTTGTGTTTTCATTTGTGCTAG	1.44 z-score
TCAGATCTCCGAGATGCCACTGTGCTA	-0.192 z-score
ATAGGTTTCGGGTATCGGTTAGTGCTA	9.94 z-score
TCATCTCTCTTAAATAGGACTGTGCTA	1.04 z-score
TTAGGTATCGTTATCGGTTAGTGCTAG	5.73 z-score
TTAGATATCAGTCTTGATTAGTGCTAG	-0.0421 z-score
GGGCAGGAAACGGAGGACACGTGCTAG	-0.328 z-score
TTAGGACTGGGTTTCGCTTAGTGCTAG	3.24 z-score
TTAGGGCTCGGTTTCGGTTAGTGCTAG	7.62 z-score
TTAGGTTTCGGTCTCGTTTAGTGCTAG	15.1 z-score
GACGGTCTCGGGTTTCGGGACGTGCTA	3.5 z-score
CTGTTTCTACTGTCTGTTTCCGTGCTA	1.92 z-score
TTAGGTATTGGGACTGGGTTAGTGCTA	0.226 z-score
